Measurements gathered from unrelated publications.
Every numbered part comes from another study and shows a few of its results, in no order. Positions count from the first letter of the parent shown.

Sample 1 — technique: DHFR PCA, deep sequencing; matrix: yeast; added: (+)-ABA 17 µM; reference: wild-type fitted maximum; direction: higher = stronger binding
Target: ABI1, truncated, D143A, DHFR fusion (Arabidopsis thaliana)
Setting: methotrexate growth selection, single substitutions
Parent: PYL1, truncated, DHFR fusion (Arabidopsis thaliana); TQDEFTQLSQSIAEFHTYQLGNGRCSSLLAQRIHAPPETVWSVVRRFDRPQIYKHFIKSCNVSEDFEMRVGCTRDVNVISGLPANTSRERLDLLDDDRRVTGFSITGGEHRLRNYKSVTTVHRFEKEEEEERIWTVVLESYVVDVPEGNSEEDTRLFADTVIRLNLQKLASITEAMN
Change | relative binding score
N85L | 82.6%
L169N | 16.8%
V100K | 3.99%
L28E | 6.94%
L169W | -1.39%
H122D | 45.6%
L156E | 61.5%
Q10M | 69.5%

Sample 2 — technique: RNA Bind-n-Seq; form: RNA; matrix: in vitro; concentration: 200 nM; setting: whole 134-nt RNA, ends assumed; added: 150 mM LiCl; reference: input library; direction: higher = stronger binding; all molecules: 7-deaza-guanosine replaces G
Target: Ras GTPase-activating protein-binding protein 1, full length (G3BP1, Homo sapiens, UniProt Q13283)
Sequence of UniProt Q13283 (whole entry, looked up): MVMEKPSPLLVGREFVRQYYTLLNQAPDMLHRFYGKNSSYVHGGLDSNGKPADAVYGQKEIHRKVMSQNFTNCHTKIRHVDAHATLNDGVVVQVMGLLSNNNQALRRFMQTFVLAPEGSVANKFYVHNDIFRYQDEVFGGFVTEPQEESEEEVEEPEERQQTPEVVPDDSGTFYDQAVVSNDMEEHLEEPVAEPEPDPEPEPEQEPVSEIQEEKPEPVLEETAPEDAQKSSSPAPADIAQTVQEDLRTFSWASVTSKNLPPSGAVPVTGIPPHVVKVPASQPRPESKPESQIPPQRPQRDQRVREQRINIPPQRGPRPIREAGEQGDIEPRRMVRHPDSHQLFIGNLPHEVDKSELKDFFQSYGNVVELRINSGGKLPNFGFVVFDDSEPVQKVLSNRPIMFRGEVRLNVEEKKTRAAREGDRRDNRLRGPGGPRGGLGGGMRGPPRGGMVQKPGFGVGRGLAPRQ
Sequence | log2 enrichment
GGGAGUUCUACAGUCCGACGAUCUCCUGUGCUACACAUCGUAUGUACCGAAUCGGGGUUUUUGGGUUUUUGGGGUUUUUGGGAAAGUAUUAUGUUACGCCGUUCGGAUCUGCAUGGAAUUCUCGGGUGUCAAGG | 0.921
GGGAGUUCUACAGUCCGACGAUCUCAAGUCCUGUGCUACACAUCGUAUGUACCGAAUCGGGAAGGGAAGGGAAGGGGAAAGUAUUAUGUUACGCCGUUCGGAUCUGCACUUCCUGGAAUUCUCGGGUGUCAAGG | -0.318
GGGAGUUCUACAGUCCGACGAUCAGAUGAACAAGAGAACUGGGCAACCCAUGAUCCACAUCUACCUGGACAAGGAAACAGGAAAGCCCAAAGGCGAUGCCACAGUGUCCUAUGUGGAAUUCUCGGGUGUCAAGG | -0.841
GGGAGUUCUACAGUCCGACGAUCUCAAGUCCUGUGCUACACAUCGUAUGUACCGAAUCGGAAAGGGGAAAGGAAAGGAAAGUAUUAUGUUACGCCGUUCGGAUCUGCACUUCCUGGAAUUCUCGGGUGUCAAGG | -0.394
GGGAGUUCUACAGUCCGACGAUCUGGGACGUGGAUUUUGUUUAUUUUUUUAGCUCAUUUCCAGGGGUGGGAAUUUUUUUUUAAUAUGUGUCAUGAAUAAAGUUGUUUUUGAAAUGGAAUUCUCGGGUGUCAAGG | 0.156
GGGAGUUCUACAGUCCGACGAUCGCAGGACGUAAAAACAAAUGGAAAUGCUUCGGAUAGUGGCAGGGGUGGGGGUUGCUAAGGAAAGGGUGGGAUGGGAGUGGGUAAAGAGUUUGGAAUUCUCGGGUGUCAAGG | -0.457
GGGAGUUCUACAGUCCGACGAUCCUCAAGUCCUGUGCUACACAUCGUAUGUACCGAAUCGGGUUUGGUUUGGUUUGGAAAGUAUUAUGUUACGCCGUUCGGAUCUGCACUUCCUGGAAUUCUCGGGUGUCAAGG | 0.177
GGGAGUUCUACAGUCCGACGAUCUCAAGUCCUGUGCUACACAUCGUAUGUACCGAAUCGGGGUGGGGAGGGGUGGGGAAAGUAUUAUGUUACGCCGUUCGGAUCUGCACUUCCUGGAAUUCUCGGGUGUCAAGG | -0.0287

Sample 3 — technique: protein-binding microarray; form: double-stranded DNA, one strand shown; matrix: in vitro; concentration: 0.8 µM; setting: whole 60-bp probe, no competitor; direction: higher = stronger binding
Target: Centromere-binding protein 1, full length, N-terminal tag (CBF1, Saccharomyces cerevisiae, UniProt P17106, residues 1-351)
Sequence of UniProt P17106 (whole entry, looked up): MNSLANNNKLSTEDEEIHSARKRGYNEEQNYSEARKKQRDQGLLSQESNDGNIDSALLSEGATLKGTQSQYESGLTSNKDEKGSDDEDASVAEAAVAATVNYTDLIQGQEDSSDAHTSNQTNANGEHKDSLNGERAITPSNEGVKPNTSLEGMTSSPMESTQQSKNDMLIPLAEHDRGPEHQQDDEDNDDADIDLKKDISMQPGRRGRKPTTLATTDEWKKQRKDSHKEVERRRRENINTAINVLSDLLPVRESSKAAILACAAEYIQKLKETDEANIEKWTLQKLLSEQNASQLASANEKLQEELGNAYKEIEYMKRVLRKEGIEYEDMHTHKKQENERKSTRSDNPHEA
Sequence | fluorescence intensity [a.u.]
CTAAGAGACATTGGCCACGAGGAGTGTAGCGGCTTCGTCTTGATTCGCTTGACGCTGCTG | 531
GAATTCTTACTAAATCACGTGACAAGAGGCGGATAGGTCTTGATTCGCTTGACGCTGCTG | 34500
GAATCTCCGAGACACGTGCTAATATCTATTTCATAGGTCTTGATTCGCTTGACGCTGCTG | 8590
GAAATAGGCAAGTGTCATGTGCCCTAACAGAAATAGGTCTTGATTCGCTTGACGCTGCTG | 1660
CTACTCGTGCATCGTGATGTTATTTGTTACGTATTCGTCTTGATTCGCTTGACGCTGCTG | 798
CCTAACTACTATAGTCAGATGACATAGCTTCGTACAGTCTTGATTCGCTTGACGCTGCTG | 1450
CTACAACTTCACGCCCACGTTGAGAGTACATTCTTCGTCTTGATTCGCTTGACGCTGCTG | 636
CTAAAAAATCTTGATCACATCAACCAAAAATGTTTCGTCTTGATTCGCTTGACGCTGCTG | 560

Further values, each from its own experiment
Compound | system | conditions | measurement | result
CC(C)N1N=C(c2nc(-c3ccsc3)no2)CCC1=O | mouse, microsomes or S9 | 2 µM, 0.5 h | remaining compound | 8.12%
